# Results gathered from unrelated publications.
# Every numbered part comes from another study and shows a few of its results, in no order. Changes are numbered by the printed parent chain.
# Sequence of UniProt Q8N2K1 (whole entry, looked up): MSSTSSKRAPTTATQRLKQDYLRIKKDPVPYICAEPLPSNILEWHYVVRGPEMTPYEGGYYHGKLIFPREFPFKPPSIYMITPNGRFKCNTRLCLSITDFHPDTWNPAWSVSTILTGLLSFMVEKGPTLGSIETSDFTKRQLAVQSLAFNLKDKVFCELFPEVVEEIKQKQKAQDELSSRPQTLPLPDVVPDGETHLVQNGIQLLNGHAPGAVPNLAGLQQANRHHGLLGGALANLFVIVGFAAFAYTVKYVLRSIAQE
# Sequence of UniProt Q712K3 (whole entry, looked up): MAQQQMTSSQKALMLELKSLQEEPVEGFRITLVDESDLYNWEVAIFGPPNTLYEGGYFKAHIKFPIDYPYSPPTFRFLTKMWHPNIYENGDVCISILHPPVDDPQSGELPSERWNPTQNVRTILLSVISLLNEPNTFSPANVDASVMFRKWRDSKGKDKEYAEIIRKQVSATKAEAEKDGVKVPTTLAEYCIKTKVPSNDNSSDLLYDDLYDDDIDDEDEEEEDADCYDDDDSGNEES
# Sequence of UniProt P61081 (whole entry, looked up): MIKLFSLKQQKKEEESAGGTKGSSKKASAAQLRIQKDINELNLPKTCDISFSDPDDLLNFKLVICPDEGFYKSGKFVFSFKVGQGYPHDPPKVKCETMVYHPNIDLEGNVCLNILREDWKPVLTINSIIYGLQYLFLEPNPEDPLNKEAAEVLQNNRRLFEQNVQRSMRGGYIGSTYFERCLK
# Sequence of UniProt Q9Y385 (whole entry, looked up): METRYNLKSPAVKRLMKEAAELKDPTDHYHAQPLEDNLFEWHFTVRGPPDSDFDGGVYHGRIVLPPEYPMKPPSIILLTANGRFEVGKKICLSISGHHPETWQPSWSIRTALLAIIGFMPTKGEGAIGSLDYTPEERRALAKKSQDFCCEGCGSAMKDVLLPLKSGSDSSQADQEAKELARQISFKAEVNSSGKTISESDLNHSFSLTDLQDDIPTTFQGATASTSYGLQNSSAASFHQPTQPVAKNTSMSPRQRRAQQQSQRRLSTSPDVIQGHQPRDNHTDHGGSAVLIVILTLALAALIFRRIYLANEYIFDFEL
# Sequence of UniProt P68036 (whole entry, looked up): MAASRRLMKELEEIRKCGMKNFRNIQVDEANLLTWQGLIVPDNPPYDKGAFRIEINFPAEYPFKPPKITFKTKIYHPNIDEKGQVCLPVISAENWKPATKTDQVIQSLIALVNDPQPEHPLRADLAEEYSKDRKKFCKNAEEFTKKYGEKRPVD
# Sequence of UniProt Q16763 (whole entry, looked up): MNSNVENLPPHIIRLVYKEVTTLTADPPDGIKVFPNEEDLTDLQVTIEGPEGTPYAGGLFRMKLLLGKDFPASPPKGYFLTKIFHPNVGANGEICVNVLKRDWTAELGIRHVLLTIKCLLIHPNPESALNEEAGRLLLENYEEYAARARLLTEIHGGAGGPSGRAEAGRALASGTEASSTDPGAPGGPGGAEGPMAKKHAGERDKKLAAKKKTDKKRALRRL
# Sequence of UniProt Q969T4 (whole entry, looked up): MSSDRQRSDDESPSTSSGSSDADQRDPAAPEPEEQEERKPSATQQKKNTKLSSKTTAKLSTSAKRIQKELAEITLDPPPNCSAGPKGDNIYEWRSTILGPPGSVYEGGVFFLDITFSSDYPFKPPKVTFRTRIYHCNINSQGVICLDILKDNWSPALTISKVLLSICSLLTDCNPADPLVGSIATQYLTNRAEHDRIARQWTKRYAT
# Sequence of UniProt Q9NPD8 (whole entry, looked up): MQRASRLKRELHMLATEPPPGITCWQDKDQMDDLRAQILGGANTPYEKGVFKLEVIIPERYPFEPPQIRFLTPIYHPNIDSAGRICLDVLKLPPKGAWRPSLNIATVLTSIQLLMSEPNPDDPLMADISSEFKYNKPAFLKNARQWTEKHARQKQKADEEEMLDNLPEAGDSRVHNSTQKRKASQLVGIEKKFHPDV
# Sequence of UniProt Q9H832 (whole entry, looked up): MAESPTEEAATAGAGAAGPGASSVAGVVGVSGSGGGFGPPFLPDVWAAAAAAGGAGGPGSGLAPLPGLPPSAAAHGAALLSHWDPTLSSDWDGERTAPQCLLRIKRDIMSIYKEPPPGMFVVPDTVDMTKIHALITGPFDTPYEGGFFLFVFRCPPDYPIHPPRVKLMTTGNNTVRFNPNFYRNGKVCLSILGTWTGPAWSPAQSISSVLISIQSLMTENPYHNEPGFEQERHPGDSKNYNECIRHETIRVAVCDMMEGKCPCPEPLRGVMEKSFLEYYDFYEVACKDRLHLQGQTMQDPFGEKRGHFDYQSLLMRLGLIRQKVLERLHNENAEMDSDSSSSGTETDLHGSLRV
# Sequence of UniProt O00762 (whole entry, looked up): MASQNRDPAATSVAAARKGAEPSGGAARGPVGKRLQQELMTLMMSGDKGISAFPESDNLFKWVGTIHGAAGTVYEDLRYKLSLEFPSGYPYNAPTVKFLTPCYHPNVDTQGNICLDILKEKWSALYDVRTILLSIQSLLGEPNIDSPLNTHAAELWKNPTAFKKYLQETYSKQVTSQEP
# Sequence of UniProt Q7Z7E8 (whole entry, looked up): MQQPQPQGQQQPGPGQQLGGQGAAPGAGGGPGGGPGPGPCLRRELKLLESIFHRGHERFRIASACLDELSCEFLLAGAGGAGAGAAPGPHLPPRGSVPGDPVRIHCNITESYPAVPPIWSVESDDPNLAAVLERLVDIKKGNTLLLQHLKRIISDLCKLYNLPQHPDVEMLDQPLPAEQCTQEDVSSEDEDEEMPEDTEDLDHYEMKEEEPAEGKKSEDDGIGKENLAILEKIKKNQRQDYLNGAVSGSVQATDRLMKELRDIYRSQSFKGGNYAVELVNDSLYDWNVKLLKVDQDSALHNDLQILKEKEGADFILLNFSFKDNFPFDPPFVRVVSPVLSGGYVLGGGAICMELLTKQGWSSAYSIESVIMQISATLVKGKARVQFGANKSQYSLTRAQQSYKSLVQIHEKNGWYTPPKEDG

# Block 1
# Target: CCNA2, cyclin fold, Cln2 fusion (human)
# Method: yeast growth competition, sequencing
# Matrix: yeast
# Notes: strong parent motif
# Reference: not given
# Direction: higher = stronger binding
# Starting sequence: E2F1 docking peptide (human); PPVKRRLDFETDH
Change,normalised enrichment score
R5F,0.767
D12V,6.12
D8C,6.28
P2K,6.98
F9E,0.49
L7K,0.232
T11H,6.07
F9A,0.49
T11N,6.17
E10R,6.04
D8Q,5.84
F9G,0.28
R5H,1.7
D12E,5.96
E10G,6.32
D8K,5.93
R5T,3.16
D12H,6.25
K4P,4.12
F9W,5.07
F9V,1.99
R6F,4.85
V3H,4.61
R6T,4.94

# Block 2
# Molecule: B1 (TRIM13 RING domain)
# Method: yeast two-hybrid
# Matrix: yeast
# Notes: mostly zero background
# Reference: not given
# Direction: higher = stronger interaction
# B1: TRIM13 RING domain (UniProt O60858); chain MELLEEDLTCPICCSLFDDPRVLPCSHNFCKKCLEGILEGSVRNSLWRPAPFKCPTCRKETSATGINS
target,lacZ reporter activity
UBE2E3 UBC core domain (UniProt Q969T4),0
UBE2Q1 UBC core domain (UniProt Q7Z7E8),0
UBE2C UBC core domain (UniProt O00762),0
UBE2J2 UBC core domain (UniProt Q8N2K1),0
UBE2S UBC core domain (UniProt Q16763),0
UBE2Z UBC core domain (UniProt Q9H832),0
UBE2L3 UBC core domain (UniProt P68036),0
UBE2M UBC core domain (UniProt P61081),0
BIRC6 UBC core domain (UniProt Q9NR09),0
UBE2J1 UBC core domain (UniProt Q9Y385),0
UBE2T UBC core domain (UniProt Q9NPD8),0
UBE2R2 UBC core domain (UniProt Q712K3),0

# Block 3
# Target: RING finger protein unkempt homolog, zinc fingers 1-6, GST-SBP tag (UNK, Homo sapiens, UniProt Q9C0B0, residues 30-357)
# Method: RNA Bind-n-Seq
# Form: RNA
# Matrix: in vitro
# Tested at: not given
# Notes: RNA with constant flanks, human and mouse sites, ends assumed
# Reference: input RNA pool
# Direction: higher = stronger binding
# Target sequence (chain): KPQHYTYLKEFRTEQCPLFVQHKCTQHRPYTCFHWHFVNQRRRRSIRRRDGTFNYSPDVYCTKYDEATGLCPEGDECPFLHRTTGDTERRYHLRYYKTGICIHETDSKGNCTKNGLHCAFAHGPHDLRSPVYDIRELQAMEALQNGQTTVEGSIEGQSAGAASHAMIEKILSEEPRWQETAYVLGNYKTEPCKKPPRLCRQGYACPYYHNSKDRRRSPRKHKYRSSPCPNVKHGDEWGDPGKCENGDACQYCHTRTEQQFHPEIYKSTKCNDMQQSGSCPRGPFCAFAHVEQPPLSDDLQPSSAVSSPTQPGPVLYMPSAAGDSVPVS
Strand,bound/input enrichment [ratio]
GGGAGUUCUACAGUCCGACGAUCUUGUGAACACACAGCCAGUCCGCUUCCAGGCUUUGUUCCUCUGUGUGCUUAGUUUUAAAGACAACUUUGAAAUAAACAAUGAAAUAAAAGAUGUCACUAAAAUCUUUGAGGCUCCUGAACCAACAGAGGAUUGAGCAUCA,0.461
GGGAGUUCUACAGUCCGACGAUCUUGUAAGUGCACGCACGCCAGUGGUCUGUUCCCGCGGCCGGGUUUGAUGGCACAGCUAUUUUCUUCCCAAACUGUUCAAAAUGAUGAACGAAGAUGCAGCUCAGAAAAGCGACAGUGGAGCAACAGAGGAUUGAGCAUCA,0.24
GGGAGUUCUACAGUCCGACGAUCCAGCUCCAGUCUAAUACCUAUGACCUCCAAGAGAGCAACGUGAGGCUAAAGCUCACGAUCGUUAGCACAGUUGGCUUUGGGGACCAGAUCAACAAAGAGGACAGCUACAAGCCUAUCGUGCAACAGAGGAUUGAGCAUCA,0.116
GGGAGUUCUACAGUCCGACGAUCGGCCCCGGAACCCGAGCUGGAGCUGAAGCGCAGGCUGCGGGGCGCGGAGUCGGGAGGCCUGAGUGUUCCUUCCAGCAUGUCGGAGGGGGAGUCCCAGACAGUACUUAGCAGUGGCUCAGACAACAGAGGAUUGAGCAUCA,0.301
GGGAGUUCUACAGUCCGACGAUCUCAUUUACAAGGAUUAUUUUAAUGAGGAAAAUGAGUCACUGAAGUCACAUGUUCUAACAGGAAGGAAGACUUCAAGAAGUCAUUGAAACCCUUCUCUCUCUGGAAAAGCAGACUCGUACUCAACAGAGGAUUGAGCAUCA,0.102
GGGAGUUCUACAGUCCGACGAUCGGCAACAAAGAAGAUUACGACCUUUCAAAGAUGAGGGACUUUAUCAACCAACAAGCUGACGCUUAUGUGGAGAAGGGCAUCCUCGACAAGGAAGAAGCCAACGCCAUCAAACGCAUCUACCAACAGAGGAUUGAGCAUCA,0.0817
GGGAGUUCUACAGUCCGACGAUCAACAAGUGGGUGAUCCCGGAGUUGGUCGGCCACACCAUUGUCACUGUGCUGAUGCUUGUCUCCCUGCACUGGUUCAUCUUCCUUCUCAACUUACCUGUCGCCACGUGGAAUAUAUAUAGGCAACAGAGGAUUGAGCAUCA,0.479
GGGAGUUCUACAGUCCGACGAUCGCAAGAAUUGAUGCUGUGAAUGCUGAGACAAUUCGAGAAGUAUGUACCAAAUACAUUUAUAAUAGGAGUCCAGCUAUUGCUGCUGUUGGUCCCAUUAAGCAACUACCAGAUUUUAAACAGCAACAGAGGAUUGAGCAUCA,0.407
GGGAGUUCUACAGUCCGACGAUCUACAAGGUCCAGGAAAAUAUAUAGACUACAGAUGUCCCAGGCUUUGAGUAAGCGCUGAUUUUAGGAGAUGGGUAAUUAACCCAAGUUCUCCAACAUUUUUCACAUAAGAAAUGUGUUUUGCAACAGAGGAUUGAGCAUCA,0.188
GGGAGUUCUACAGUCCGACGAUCGUUAGGAUGAUUCUGAAGAUUGAUGACAUCCGUAAGCCUGGAGAAUCUGAAGAAUAAACUGUACCAUUUACCACUGUGACUAAAUAAAGGGUGUGUCUGUUGUGCUGCGUCUGCAGUUACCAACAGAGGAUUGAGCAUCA,0.56
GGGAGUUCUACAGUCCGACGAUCGGCAGCGCCAUAUUCAUCACUUCCUAUGUUAGGCCUGUCAAGUUCUGGGAGAGAGACUACAACACAAAACGUGUAGACCAUUCAAAUACCAGAUUGGCUUCUCAGCUUGAUAGAAAUCCACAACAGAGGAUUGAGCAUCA,0.264

# Block 4
# Target: Centromere-binding protein 1, full length, N-terminal tag (CBF1, Saccharomyces cerevisiae, UniProt P17106, residues 1-351)
# Sequence of UniProt P17106 (whole entry, looked up): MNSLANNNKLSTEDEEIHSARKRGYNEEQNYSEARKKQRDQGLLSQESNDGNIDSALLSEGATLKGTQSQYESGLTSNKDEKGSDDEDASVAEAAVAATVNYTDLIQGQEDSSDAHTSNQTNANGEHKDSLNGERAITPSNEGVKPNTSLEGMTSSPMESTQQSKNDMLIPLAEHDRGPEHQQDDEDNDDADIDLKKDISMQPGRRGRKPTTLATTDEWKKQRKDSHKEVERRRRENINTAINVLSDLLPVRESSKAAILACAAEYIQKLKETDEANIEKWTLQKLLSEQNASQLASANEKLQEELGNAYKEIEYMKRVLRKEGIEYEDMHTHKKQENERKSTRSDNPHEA
# Method: protein-binding microarray
# Form: double-stranded DNA, one strand shown
# Matrix: in vitro
# Tested at: 0.8 µM
# Notes: whole 60-bp probe, no competitor
# Direction: higher = stronger binding
Strand,fluorescence intensity
CTATGACATTAATCCTACGTGACTTACACATATTTCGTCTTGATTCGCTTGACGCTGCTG,743 a.u.
GAAGTAAAACAGTAACACGTTAATCTTTAGAATTAGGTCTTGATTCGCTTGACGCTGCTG,513 a.u.
CTATTGTTATCACCCCACGACGAAGATAATACGTTCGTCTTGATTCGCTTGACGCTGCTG,635 a.u.
GAATGAAACAAATATTTCGTGACAGAATACTAATAGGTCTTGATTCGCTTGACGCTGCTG,558 a.u.
CTACATATGATGTCCCACATGACGCAAGTAACTTTCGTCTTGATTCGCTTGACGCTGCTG,860 a.u.
TGTACGAAGCTATCTTACGTGATTATAGTAGTTAGGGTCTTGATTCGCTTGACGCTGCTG,528 a.u.
GAAATTTGATAAAATCACCTGGCATTACGGTGATAGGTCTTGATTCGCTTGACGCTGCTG,723 a.u.
GAACCAATTTTTATCATCGTGACACCAATCACTTAGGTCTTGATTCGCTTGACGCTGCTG,975 a.u.
CCTAACTACTATATACACGCGGTATAGCTTCGTACAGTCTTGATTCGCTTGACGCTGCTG,533 a.u.
CTACCACTATTACGTGGTGCTTCCAGTAGCGCTTTCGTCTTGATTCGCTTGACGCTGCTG,496 a.u.
CTATCCAGGGAGAATCAGCAGAAACGAGACGAATTCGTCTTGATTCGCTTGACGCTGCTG,520 a.u.
CTAGCAACTCTCTCCGTCATGACCACTACTCCGTTCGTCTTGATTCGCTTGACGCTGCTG,520 a.u.
GAAATCGACGATGCACACGTTATTGATAAACATTAGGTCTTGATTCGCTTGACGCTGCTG,623 a.u.
GAAGATCACGACCCGCGGGTGAGCCCACACTCATAGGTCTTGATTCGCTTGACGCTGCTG,759 a.u.
GAATCATATAATCCTTCTGATGTACGGATGTTTTAGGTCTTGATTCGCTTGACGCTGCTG,495 a.u.
CTAGCAATGGCGATTCACGTGTTCGGTAACCACTTCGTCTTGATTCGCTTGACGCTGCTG,4630 a.u.
CTACGTGTAGCGACGCACGTCAGACATGGATGCTTCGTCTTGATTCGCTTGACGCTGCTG,503 a.u.
CTATAATGTCCACGTGATGACATTTCAATCTGCTTCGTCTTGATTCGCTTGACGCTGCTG,15300 a.u.
GAAGATAATTACTACCATCACCTGCATCAAATTTAGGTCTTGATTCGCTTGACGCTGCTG,829 a.u.
CTAATAACTCAACAAAACGTGACAAAAAATCACTTCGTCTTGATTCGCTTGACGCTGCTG,2780 a.u.
GAAAAATAAAAAACCCACGTAATATAGCAAAAATAGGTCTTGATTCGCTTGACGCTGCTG,545 a.u.
GAATCTCTTTTTTTTCACATGCGCAGAACCTATTAGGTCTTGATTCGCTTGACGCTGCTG,715 a.u.
GAAGACACAGAACCACAGCTGACCGGTAGTAAATAGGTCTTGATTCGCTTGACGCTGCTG,576 a.u.

# Some of these lines once more (block 3):
Strand,bound/input enrichment [ratio]
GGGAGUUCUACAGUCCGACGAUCAACAAGUGGGUGAUCCCGGAGUUGGUCGGCCACACCAUUGUCACUGUGCUGAUGCUUGUCUCCCUGCACUGGUUCAUCUUCCUUCUCAACUUACCUGUCGCCACGUGGAAUAUAUAUAGGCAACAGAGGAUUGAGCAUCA,0.479
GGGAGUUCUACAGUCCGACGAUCUUGUGAACACACAGCCAGUCCGCUUCCAGGCUUUGUUCCUCUGUGUGCUUAGUUUUAAAGACAACUUUGAAAUAAACAAUGAAAUAAAAGAUGUCACUAAAAUCUUUGAGGCUCCUGAACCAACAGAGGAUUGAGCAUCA,0.461
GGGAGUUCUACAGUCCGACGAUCGUUAGGAUGAUUCUGAAGAUUGAUGACAUCCGUAAGCCUGGAGAAUCUGAAGAAUAAACUGUACCAUUUACCACUGUGACUAAAUAAAGGGUGUGUCUGUUGUGCUGCGUCUGCAGUUACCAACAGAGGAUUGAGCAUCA,0.56
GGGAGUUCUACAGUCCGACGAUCUACAAGGUCCAGGAAAAUAUAUAGACUACAGAUGUCCCAGGCUUUGAGUAAGCGCUGAUUUUAGGAGAUGGGUAAUUAACCCAAGUUCUCCAACAUUUUUCACAUAAGAAAUGUGUUUUGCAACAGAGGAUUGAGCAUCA,0.188
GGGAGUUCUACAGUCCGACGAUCCAGCUCCAGUCUAAUACCUAUGACCUCCAAGAGAGCAACGUGAGGCUAAAGCUCACGAUCGUUAGCACAGUUGGCUUUGGGGACCAGAUCAACAAAGAGGACAGCUACAAGCCUAUCGUGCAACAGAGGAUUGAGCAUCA,0.116
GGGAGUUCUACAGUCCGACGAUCUCAUUUACAAGGAUUAUUUUAAUGAGGAAAAUGAGUCACUGAAGUCACAUGUUCUAACAGGAAGGAAGACUUCAAGAAGUCAUUGAAACCCUUCUCUCUCUGGAAAAGCAGACUCGUACUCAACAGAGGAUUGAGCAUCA,0.102
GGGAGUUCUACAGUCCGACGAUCGGCAACAAAGAAGAUUACGACCUUUCAAAGAUGAGGGACUUUAUCAACCAACAAGCUGACGCUUAUGUGGAGAAGGGCAUCCUCGACAAGGAAGAAGCCAACGCCAUCAAACGCAUCUACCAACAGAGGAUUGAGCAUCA,0.0817
